Measured values pooled from the literature.
Numbered parts are unrelated; each lists some results of a single study.

Series 1 — cell line: HaCaT; tested at: 100 µM; time: 36 h
Compound	viability [%]
COc1cc(Nc2c(C#N)cnc3cc(OCCCN4CCN(C)CC4)c(OC)cc23)c(Cl)cc1Cl	110
CC(=O)OC(C)C[N+](C)(C)C (centres unmarked)	92.8
CC(C)(C)NCC(O)c1cc(O)cc(O)c1 (centres unmarked)	75.2
N#C/C(=C1/SC[C@@H](c2ccc(Cl)cc2Cl)S1)n1ccnc1	26.8
CC1(C)S[C@@H]2[C@H](NC(=O)[C@H](C(=O)O)c3ccsc3)C(=O)N2[C@H]1C(=O)O	92.7

Series 2 — read-out: binding; method: radioligand binding; tested at: 10 µM
Target: Histamine H4 receptor (HRH4, Homo sapiens, UniProt Q9H3N8)
Structure (SMILES)	inhibition [%]
COc1nc2ccc([C@@](O)(c3ccccc3)C3CCN(C(C)=O)CC3)cc2c(Cl)c1Cc1ccc(-n2cccn2)cc1	-21.2
CN([C@@H]1CCc2c(CC(=O)O)c3cc(S(C)(=O)=O)ccc3n2C1)S(=O)(=O)c1ccc(F)cc1	16
O=C(NC[C@@H]1[C@H]2CN(C(=O)OCc3cc(C(F)(F)F)cc(C(F)(F)F)c3)C[C@@H]12)c1ccc2[nH]nnc2c1	39.5
Cc1nc(Cc2cccc(C(F)(F)F)c2)sc1-c1ccc(C(N)=O)nc1	7.74
CN1CCN(C(=O)C(C)(C)c2ccc(C(=O)Nc3cn4cc(-c5ccncc5)ccc4n3)cc2)CC1	0.74
Cc1cc(C)c(-n2ccn3nc(-c4cccnc4)cc23)cc1NC(=O)c1cc(C#N)cc(S(F)(F)(F)(F)F)c1	11.9
Cc1nccc(COC(=O)N2C[C@@H]3[C@@H](CNC(=O)c4ccc5[nH]nnc5c4)[C@@H]3C2)n1	7.45
CC(=O)Nc1c(F)cc(C(=O)N[C@H]2CC[C@H](O)CC2)cc1O[C@@H](C)c1ccccc1	20.1
CC1=C(C#N)C(c2ccc3c(c2)c(NC(=O)c2ccccc2C)nn3C)C(C#N)=C(C)N1	-13
CNC(=O)Nc1ccc2c(c1)[C@]1(CC2)OC(=O)N(CC(=O)N(Cc2ccc(F)cc2)[C@@H](C)C(F)(F)F)C1=O	5.16
Nc1c(C(=O)NCc2ccc(C(=O)NCCCC3CCCCC3)cc2)cnn1-c1ccccc1	-28
CN1C(=O)[C@@H](N2CCc3cn(Cc4ccccc4)nc3C2=O)COc2ccccc21	6.09
COc1cccc(CNC(=O)c2nc3scc(COCc4ccc(C(=O)O)cc4)c3c(=O)[nH]2)c1	17.6
Cc1c(N2CCCC2)nc2ccc(Br)cc2c1C(=O)NC[C@H](CCC(=O)O)c1ccccc1Cl	13.1
CC(C)CC(=O)N1CCc2nc(-c3ccc(Br)cc3)nc(N(C)Cc3ccccc3)c2C1	-7.78
O[C@]1(C(F)(F)F)CCCC[C@H]1Nc1ccc(F)cc1	15.6
O=C(Nc1cccnn1)N1CC(CC=Cc2cncc(Oc3ccc(C(F)(F)F)cn3)n2)C1	-20.1
Cc1nc(N2CC[C@@H](O)C2)ncc1-c1cc(C(F)(F)F)cc2[nH]ncc12	12
COCCc1ccc(-c2c(C)nc3c(N4CCOCC4)ccnn23)cn1	-1.08
CC(=O)Nc1nc(CN2CCC[C@H](Cc3cc(C)nc(C)c3)C2)cs1	-0.6
CCOCCn1cc(C(=O)Nc2ccc(-n3nc(-c4cccnc4)cc3C(F)(F)F)cn2)ccc1=O	48.6
Cc1c[nH]c2nccc(Oc3c(F)cc(Nc4cc(Cl)nc(N)n4)cc3F)c12	-8.74
O=C([C@H]1C[C@H](O)CN1c1ccc(Cl)cc1)N1CC2COCC(C1)N2Cc1ccc(Cl)cc1	-3.31
CNC(=O)c1ccc(Nc2ncc(C(F)(F)F)c(NCc3nccnc3N(C)S(C)(=O)=O)n2)cc1	-19.6
CC(=O)c1c(NS(C)(=O)=O)c2cc(-c3ccc(Cl)cc3)c(-c3ccc(Cl)cc3Cl)nc2n(C)c1=O	-13.6

Series 3 — read-out: enzyme activity; mode: inhibitor; tested at: 10 µM
Target: Calcium/calmodulin-dependent protein kinase type II subunit alpha (CAMK2A, Homo sapiens, UniProt Q9UQM7)
SMILES	inhibition [%]
CC[C@H]1NC(=O)[C@@H](NC(=O)c2ncccc2O)[C@@H](C)OC(=O)[C@H](c2ccccc2)NC(=O)[C@@H]2CC(=O)CCN2C(=O)[C@H](Cc2ccc(N(C)C)cc2)N(C)C(=O)[C@@H]2CCCN2C1=O	20
O=C1NC(=O)C(c2ccccc2)(c2ccccc2)N1	-4
CCCCCCCC/C=C\CCCCCCCC(=O)OCC(O)CO (centres unmarked)	-4
COC(=O)C1=C(C)NC(C)=C(C(=O)OC(C)C)C1c1cccc2nonc12 (centres unmarked)	-2
COc1cc(-c2oc3cc(O)cc(O)c3c(=O)c2O[C@@H]2O[C@H](CO)[C@@H](O)[C@H](O)[C@H]2O)ccc1O	24
NC(=N\CCCCCC/N=C(N)/N=C(\N)Nc1ccc(Cl)cc1)/N=C(\N)Nc1ccc(Cl)cc1	5
CC(C)=CCc1c(O)cc2oc3cc(O)c(O)c(CC=C(C)C)c3c(=O)c2c1O	17

Series 4 — read-out: enzyme activity; mode: inhibitor; tested at: 1 µM
Structure (SMILES): CC#CC(=O)N1CCC[C@H]1c1nc(-c2ccc(C(=O)Nc3ccccn3)cc2)c2c(N)nccn12
target	inhibition [%]
Serine/threonine-protein kinase PAK 2 (PAK2, Homo sapiens, UniProt Q13177)	19
Mitogen-activated protein kinase kinase kinase kinase 2 (MAP4K2, Homo sapiens, UniProt Q12851)	0
Serine/threonine-protein kinase Nek11 (NEK11, Homo sapiens, UniProt Q8NG66)	0
Epidermal growth factor receptor (EGFR, Homo sapiens, UniProt P00533, del747-752/P753S)	0
cAMP-dependent protein kinase catalytic subunit PRKX (PRKX, Homo sapiens, UniProt P51817)	0
Mitogen-activated protein kinase kinase kinase 12 (MAP3K12, Homo sapiens, UniProt Q12852)	3

Series 5 — method: competitive binding panel; tested at: 1 µM; reference: vehicle
SMILES: CN1CCN(C(=O)c2ccc(NC(=O)Nc3ccc(N(C)c4ccnc(Nc5ccc(CS(C)(=O)=O)cc5)n4)cc3)cc2)CC1
target	measured	remaining binding [%]
Mitogen-activated protein kinase kinase kinase 10 (MAP3K10, Homo sapiens, UniProt Q02779)	MLK2	82
Tyrosine-protein kinase Srms (SRMS, Homo sapiens, UniProt Q9H3Y6)	–	77
G protein-coupled receptor kinase 4 (GRK4, Homo sapiens, UniProt P32298)	–	4.5
Serine/threonine-protein kinase 24 (STK24, Homo sapiens, UniProt Q9Y6E0)	MST3	47
Phosphatidylinositol 4,5-bisphosphate 3-kinase catalytic subunit alpha isoform (PIK3CA, Homo sapiens, UniProt P42336, E542K)	–	98
Mitogen-activated protein kinase kinase kinase 20 (MAP3K20, Homo sapiens, UniProt Q9NYL2)	ZAK	86
Bone morphogenetic protein receptor type-2 (BMPR2, Homo sapiens, UniProt Q13873)	–	56
Calcium/calmodulin-dependent protein kinase type 1 (CAMK1, Homo sapiens, UniProt Q14012)	–	100
Serine/threonine-protein kinase N2 (PKN2, Homo sapiens, UniProt Q16513)	–	100
Mitogen-activated protein kinase kinase kinase kinase 1 (MAP4K1, Homo sapiens, UniProt Q92918)	HPK1	2.6

For quick reference, copied from above (series 5):
target	measured	remaining binding [%]
Tyrosine-protein kinase Srms (SRMS, Homo sapiens, UniProt Q9H3Y6)	–	77
Calcium/calmodulin-dependent protein kinase type 1 (CAMK1, Homo sapiens, UniProt Q14012)	–	100
Bone morphogenetic protein receptor type-2 (BMPR2, Homo sapiens, UniProt Q13873)	–	56
Mitogen-activated protein kinase kinase kinase 20 (MAP3K20, Homo sapiens, UniProt Q9NYL2)	ZAK	86
Phosphatidylinositol 4,5-bisphosphate 3-kinase catalytic subunit alpha isoform (PIK3CA, Homo sapiens, UniProt P42336, E542K)	–	98
